Experimental data pooled from the literature.
Each numbered part is a random draw from the data of one study; scales do not carry over between parts. Positions count from the first letter of the parent shown.

Sample 1
Target: PABPC1L2, full length, GST fusion (mouse, UniProt A0ABA7IW68)
Technique: RNAcompete
Form: RNA
Sample: in vitro
Concentration: 20 nM
Notes: 7-mer, probes averaged, single round
Baseline: mean of 7-mers
Direction: higher = stronger binding
Construct (chain): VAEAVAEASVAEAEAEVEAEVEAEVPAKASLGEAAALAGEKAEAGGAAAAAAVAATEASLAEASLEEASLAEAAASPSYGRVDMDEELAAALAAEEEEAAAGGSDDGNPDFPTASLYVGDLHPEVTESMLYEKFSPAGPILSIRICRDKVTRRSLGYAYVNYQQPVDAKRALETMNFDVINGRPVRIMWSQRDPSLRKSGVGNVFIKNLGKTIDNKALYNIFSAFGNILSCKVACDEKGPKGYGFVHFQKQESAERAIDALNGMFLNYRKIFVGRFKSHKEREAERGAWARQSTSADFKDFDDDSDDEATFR
Strand | 7-mer Z-score
CUUUAGA | 0.095
AACGUCA | -0.0953
GAGGCAG | 0.254
AUCCCUU | -0.269
CAAAUCC | -0.00289
GCUCCCU | -0.237

Sample 2
Target: CCND1, cyclin fold, Cln2 fusion (human)
Technique: yeast growth competition, sequencing
Sample: yeast
Notes: weak parent motif
Baseline: not given
Direction: higher = stronger binding
Starting sequence: GMNC docking peptide (human); KNAKRNLSSEFAN; partner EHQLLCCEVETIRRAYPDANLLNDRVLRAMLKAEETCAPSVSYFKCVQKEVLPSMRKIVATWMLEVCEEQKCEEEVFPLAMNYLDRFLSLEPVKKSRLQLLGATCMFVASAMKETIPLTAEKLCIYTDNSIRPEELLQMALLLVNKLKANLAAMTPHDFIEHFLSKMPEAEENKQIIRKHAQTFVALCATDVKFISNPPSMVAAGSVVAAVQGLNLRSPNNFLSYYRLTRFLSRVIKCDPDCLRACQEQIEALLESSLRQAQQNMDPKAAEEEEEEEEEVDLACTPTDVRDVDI
Substitution | normalised enrichment score
F11Y | 0.07
S9C | 0.403
N2S | 0.943
N6D | 0.547
S8G | 0.424
N6C | 0.315

Sample 3
Target: Interferon regulatory factor 7, full length, phosphomimetic (IRF7, Homo sapiens, UniProt Q92985, residues 1-503, S101K/S471D/S472D/S475D/S476D/S477D/S483D/S484D/S487D)
Technique: protein-binding microarray
Form: double-stranded DNA, one strand shown
Sample: in vitro
Concentration: 250 nM
Notes: 60-bp whole probe
Together with: salmon DNA 0.4 mg/ml
Baseline: random background probes
Direction: higher = stronger binding
Constant ends, left off below: GCCTAGCAC … GTCTTGATTCGCTTGACGCTGCTG
Residues (chain): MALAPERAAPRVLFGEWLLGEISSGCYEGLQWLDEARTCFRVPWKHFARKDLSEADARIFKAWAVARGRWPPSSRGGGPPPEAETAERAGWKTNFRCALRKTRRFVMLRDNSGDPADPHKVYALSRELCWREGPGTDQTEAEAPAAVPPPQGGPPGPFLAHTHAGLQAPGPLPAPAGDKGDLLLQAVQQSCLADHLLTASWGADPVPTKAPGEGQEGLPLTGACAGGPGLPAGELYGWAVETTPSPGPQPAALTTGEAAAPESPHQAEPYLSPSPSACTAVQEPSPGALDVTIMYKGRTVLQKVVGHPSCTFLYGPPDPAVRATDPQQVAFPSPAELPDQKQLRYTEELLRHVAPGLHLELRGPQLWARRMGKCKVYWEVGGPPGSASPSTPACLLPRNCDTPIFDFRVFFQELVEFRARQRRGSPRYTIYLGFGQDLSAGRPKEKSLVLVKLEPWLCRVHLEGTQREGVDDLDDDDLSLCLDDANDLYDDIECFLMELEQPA
Strand | log fluorescence [z-score]
GAGTGGTTCTGCTTCTTAGCGTGCTAG | 0.259
GACGGTATCGACTTTCTGGACGTGCTA | 0.716
TTAGGACGGGGGACTGGGTTAGTGCTA | 2.14
GACGGTATCGCACTGGGGACGTGCTAG | 0.0319
GACGGACTGCTTATCCTTACGTGCTAG | -0.538
TTAGAACCGGGGTTTCGATTAGTGCTA | 6.44
TTAGGTCTCCTTCTACTTTAGTGCTAG | 0.377
TTAGGACTGCTTTTCCTTTAGTGCTAG | 1.31

Single results of other studies
Substance | target | assay | test system | conditions | how to read | endpoint | result
PhoQ, residues 284 288 289 292 302 303 TAVSDG | PhoP, residues 12 14 15 18 19 VHSCL (Escherichia coli, UniProt P23836) | Sort-seq, item: YFP reporter | E. coli | PhoQ-PhoP variant library, together with: 10 µM Mg2+ | baseline: high Mg2+ state, higher = stronger signaling | fold induction | 10.5

Excerpt of the above (sample 2):
Substitution | normalised enrichment score
S9C | 0.403
N2S | 0.943
N6D | 0.547
